{"data": "Measured values collected from several papers", "note": "Every numbered part comes from another study and shows a few of its results, in no order. Substitutions count along the parent as printed."}
{"data": "Set 1", "target": "RNA binding protein fox-1 homolog 2, RRM domain, GST-SBP tag (RBFOX2, Homo sapiens, UniProt O43251-10, residues 100-194)", "method": "RNA Bind-n-Seq", "form": "RNA", "medium": "in vitro", "tested at": "365 nM", "notes": "natural RNA segment, single round, ends assumed", "baseline": "no-protein control", "direction": "higher = stronger binding", "all sequences stand within": "GGGAGUUCUACAGUCCGACGAUC … UGGAAUUCUCGGGUGCCAA", "Construct (chain)": "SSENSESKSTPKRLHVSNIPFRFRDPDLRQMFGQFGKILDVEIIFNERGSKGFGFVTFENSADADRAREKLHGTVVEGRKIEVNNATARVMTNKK"}
{"Oligonucleotide": "CGUGCCUAUUUAUCCCUCGUUCCUGAACACUACUAGUACCGUAGGGCUGGACCACCAUCUGUACCGUUGCGUCCACAGUGUGCAUUCUGAGGUAUCACUCAGGGUGCCAA", "RBNS enrichment (R)": 0.259}
{"Oligonucleotide": "UUUAAAGCCACAGUUGAGAGGCCACCCAUUGCCCGGCGCCUGGACAGUGAUCAUCUUGUUCAUCUUGUUCAGUCCUUUCUUGUGUGAUUGGAAUUAUUCAUCCCCUUUGA", "RBNS enrichment (R)": 0.317}
{"Oligonucleotide": "UGCAUGAUCCACCUGCUGCACGAUCCUAUGAGGGCUUCCUGUGGCACACAGCCCUCUGGGUGCUUGGGAACUAGCUUCAGGCACAGCCUGAUUCUGGUGAUCCAGUGAUC", "RBNS enrichment (R)": 2.88}
{"Oligonucleotide": "UGUGCAGGAAAUGACAAAUUUGUAUGUCAGAUUAUACAAGGAUGUAUUCUUAAACCGCAUGACUAUUCAGAUGGCUACUGAGUUAUCAGUGGCCAUUUAUUAGCAUCAUA", "RBNS enrichment (R)": 0.478}
{"Oligonucleotide": "GACCAAGGUAAGAUACUCAAUCAAGGCCAUUUAAUCAAUCACAUUCAUCUCAUAAUAGAAACACAUUCGUAUUCUAAUGAUCAAUCUAAAGUUCCCGUUGAGGAGGAGGC", "RBNS enrichment (R)": 0.398}
{"Oligonucleotide": "GAGGUGCUGUCUAUAAAGCCCCCCCGGGGGCUAACCUUUGCUCAGAUUCUUAAAAAGCAGUGGUUAAUUUGCUGGCUUUUCAAACCCUGCCCGCCCUGGUUUGCCUGCGG", "RBNS enrichment (R)": 0.447}
{"Oligonucleotide": "UGUCUACUGACCCCAACCCUUGAUGAUAUGUAUUUAUUCAUUUGUUAUUUUACCAGCUAUUUAUUGAGUGUCUUUUAUGUAGGCUAAAUGAACAUAGGUCUCUGGCCUCA", "RBNS enrichment (R)": 0.655}
{"Oligonucleotide": "GGCUAUAACAGAUGCUUUUAAAGCAAAUGAUACCAUUUAAGAAAUUCAGAGAGGCAUUACUUAGAAUGCUGACAUAAAGACAUGACCUUGAAGAAAAGAAUAGAAUUCUC", "RBNS enrichment (R)": 1.39}
{"Oligonucleotide": "CAGCAGUGGCAAGUCAAGGGAAGCCAGUCUUCAGUGUAAGGACCCGCAGUGGCUAUCCUAGUGUACAUUCUCCUGGAGAGCAGCUUCUGUGGCUGAAUCAGGUGUCCAGG", "RBNS enrichment (R)": 0.22}
{"Oligonucleotide": "UUCACUCAAACUUCUUUAAAUGGGGAAAAAUAUUUGUGACUCUGUGGCUGGCAGAAGAAAUAAGCCCAUGCAAGUGGAAGGGCUGCUUUGUCAGGAGGUUGUGGAAUUUC", "RBNS enrichment (R)": 1.83}
{"Oligonucleotide": "UGCUUUCUUUUUUUUUUUCUUUUUGAUGCCUUAAUGUAGAUAUCUUUAUCAUUCUGAAUUGUAUUAUAUAUUUAAAGUGCUCAUUAAUAGAAUGAUGGAUGUAAAUUGGA", "RBNS enrichment (R)": 0.632}
{"Oligonucleotide": "CCUUUUCUCCCUCCCUCUCCCUCUGCAAGCCAAGCUGCAUGCACCCAUGCAUGAGUGGUUCUUGCACCCCUGAAUGAGGAAUGCUUCCUCUGUGACAGGCUCCUCCCCAC", "RBNS enrichment (R)": 5.79}
{"data": "Set 2", "target": "Fragile X messenger ribonucleoprotein 1, C-terminal low-complexity region (Fmr1, Mus musculus, UniProt P35922)", "method": "RNA Bind-n-Seq", "form": "RNA", "medium": "in vitro", "tested at": "200 nM", "notes": "whole 134-nt RNA, ends assumed", "with": "150 mM LiCl", "baseline": "input library", "direction": "higher = stronger binding", "library": "7-deaza-guanosine replaces G", "all sequences stand within": "GGGAGUUCUACAGUCCGACGAUC … UGGAAUUCUCGGGUGUCAAGG"}
{"Oligonucleotide": "UGCUCUUCACCAAGGAGGACGAGCCUGGCCGCUGCGACGUCCUGAGGAACCCCCUCUACCUCCAGAGUGUGAAGCUGCAGGAAGGUAAGC", "log2 enrichment": -0.0882}
{"Oligonucleotide": "AGUCCUGUGCUACACAUCGUAUGUACCGAAUCGGGGCCCCGGGCCCCGGGGCCCCGGGAAAGUAUUAUGUUACGCCGUUCGGAUCUGCAC", "log2 enrichment": 0.455}
{"Oligonucleotide": "AGUCCUGUGCUACACAUCGUAUGUACCGAAUCGGGCCCCGGGGCCCCGGGCCCCGGGGAAAGUAUUAUGUUACGCCGUUCGGAUCUGCAC", "log2 enrichment": -1.85}
{"Oligonucleotide": "CUCAAGUCCUGUGCUACACAUCGUAUGUACCGAAUCGGGGUUGGUUGGGUUGGGAAAGUAUUAUGUUACGCCGUUCGGAUCUGCACUUCC", "log2 enrichment": -0.676}
{"Oligonucleotide": "UAACUUUAGAGGAGGAUCUGAUGGAUAUGGCAGUGGACGUGGAUUUGGGGAUGGCUAUAAUGGGUAUGGAGGAGGACCAGGAGGUGGCAA", "log2 enrichment": 0.741}
{"Oligonucleotide": "CUCAAGUCCUGUGCUACACAUCGUAUGUACCGAAUCGGUUUUUGGUUUGGAGGAAAGUAUUAUGUUACGCCGUUCGGAUCUGCACUUCCA", "log2 enrichment": -0.554}
{"Oligonucleotide": "UGCCCCUGGUGGCAUGCGGGGAGGAAGAGGUGGCCUCAUGGAUCGUGGUGGUCCCGGUGGAAUGUUCAGAGGUGGCCGUGGUGGAGACAG", "log2 enrichment": -1.2}
{"Oligonucleotide": "UCCUGUGCUACACAUCGUAUGUACCGAAUCGGUUUUUUGGUUUUUUGGGGUUUUUUGGGAAAGUAUUAUGUUACGCCGUUCGGAUCUGCA", "log2 enrichment": -0.38}
{"Oligonucleotide": "AGUCCUGUGCUACACAUCGUAUGUACCGAAUCGGGCCCCGGGCCCCGGGGCCCCGGGGAAAGUAUUAUGUUACGCCGUUCGGAUCUGCAC", "log2 enrichment": -2.61}
{"Oligonucleotide": "ACCAUGCAGGUGGGCAUCUUUGGGAAGUGGGGCAAGGGGGGGAUAGGGAGGGGUGUAACACUUUGGGAACAGGUGGUCCCAGGUCGUUUC", "log2 enrichment": 1.07}
{"Oligonucleotide": "UGGUGUUCAUAUUGCUGAUGUGAGCCAUUUUAUUAGGCCAGGAAAUGCCUUGGAUCAAGAAUCAGCCAGAAGAGGAACAACUGUGUAUCU", "log2 enrichment": -1.83}
{"data": "Set 3", "target": "CCND2, cyclin fold, Cln2 fusion (human)", "method": "yeast growth competition, sequencing", "medium": "yeast", "notes": "weak parent motif", "baseline": "not given", "direction": "higher = stronger binding", "parent": "E2F2 docking peptide (human); LPAKRKLDLEGIG"}
{"Variant": "LPAKKKLDLEGIG [R5K]", "normalised enrichment score": 0.104}
{"Variant": "LAAKRKLDLEGIG [P2A]", "normalised enrichment score": 0.14}
{"Variant": "LPAKRKLALEGIG [D8A]", "normalised enrichment score": -0.127}
{"Variant": "LPAKRKADLEGIG [L7A]", "normalised enrichment score": 0.262}
{"Variant": "LPAKRKLDLEGIA [G13A]", "normalised enrichment score": 0.699}
{"Variant": "LPAKRKLDFEGIG [L9F]", "normalised enrichment score": 2.49}
{"Variant": "LPAKRALDLEGIG [K6A]", "normalised enrichment score": 0.248}
{"Variant": "LPAKAKADLEGIG [R5A L7A]", "normalised enrichment score": 0.218}
{"Variant": "LPAKAKLDLEGIG [R5A]", "normalised enrichment score": 0.244}
{"data": "Set 4", "target": "RING finger protein unkempt homolog, zinc fingers 1-6, GST-SBP tag (UNK, Homo sapiens, UniProt Q9C0B0, residues 30-357)", "method": "RNA Bind-n-Seq", "form": "RNA", "medium": "in vitro", "tested at": "not given", "notes": "RNA with constant flanks, human and mouse sites, ends assumed", "baseline": "input RNA pool", "direction": "higher = stronger binding", "all sequences stand within": "GGGAGUUCUACAGUCCGACGAUC … CAACAGAGGAUUGAGCAUCA", "Construct (chain)": "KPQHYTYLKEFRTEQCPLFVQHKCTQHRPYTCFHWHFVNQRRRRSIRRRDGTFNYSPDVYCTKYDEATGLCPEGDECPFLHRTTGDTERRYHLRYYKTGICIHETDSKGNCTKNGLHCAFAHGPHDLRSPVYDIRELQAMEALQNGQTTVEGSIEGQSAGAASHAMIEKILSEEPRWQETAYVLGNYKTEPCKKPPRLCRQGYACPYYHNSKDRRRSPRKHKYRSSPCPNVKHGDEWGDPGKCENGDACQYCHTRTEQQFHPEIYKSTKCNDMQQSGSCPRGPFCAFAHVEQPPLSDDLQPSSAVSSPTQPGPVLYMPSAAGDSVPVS"}
{"Oligonucleotide": "CAUGCCCUCAGCCACAAGCGGGUGACUGACUGUUCCCUGAUGAUUUGGCCCACCUCCUGUGUUUGGACCUCUAGGGAGGAGGGUUUUGGUCAUACUCUCCUUAUCCUCGUGCACAGAAAU", "bound/input enrichment": "0.162 ratio"}
{"Oligonucleotide": "GGCACCCUCAGCUUCACCAGCGCCGAGGACGACGAGGACGACGAGGACGAGGACGACGAGGAGGCUGGCCCUGACCAGCUGCCCCUCGGGGAUGGGACGUCAGGAGAAGACGCAGAACGG", "bound/input enrichment": "0.289 ratio"}
{"Oligonucleotide": "UAGCUCUCCCUGUGCUAACUGCCUGCGCCUUGACAGCCGGGCUGCGCAAAGCAGAGGGAUUAGUUGGGACCUGCCUUGGUGACCCCAUGGCAUCCCCACGAACCAUAACUAUCAUGGCCC", "bound/input enrichment": "0.0827 ratio"}
{"Oligonucleotide": "UGCCGUUUGAUUUUACACAUAAAAAGCAGUCGGGUGGUGCCGGCCAGUUUGGAAAAGUAAUAGGAGUGCUGGAGCCCUUGCCCCCAGAGGACUACACGAAGUUGGAGUUUUCUGAUGAGA", "bound/input enrichment": "0.406 ratio"}
{"Oligonucleotide": "AAUGUGCAAGAAAGGGAAGCACAGUUUGGGACAACAGCAGAGAUCUAUGCCUAUCGAGAAGAGCAGGAGUUUGGAAUUGAAGUAGUGAAAGUGAAAGCAAUUGGAAGGCAGCGGUUCAAG", "bound/input enrichment": "0.399 ratio"}
{"Oligonucleotide": "AUGAAAAGACUAAUUGGAUGAAGACUCUCUCUCUGUAAUGAGUUUGUUGUUAAAUAUACAGUAGUUAUGGAAUGAAAAUGAAUACUUUGUCCCAGGCUCCUGGAUACGUUGCAUUUGGCU", "bound/input enrichment": "0.0573 ratio"}
{"Oligonucleotide": "AUUGGCCCCAACUUCCAGCUGGGCUUAAAGGAUGGCAUCAUCCUCUGCGAACUUAUAAACAAGCUACAGCCAGGCUCAGUGAAGAAGGUCAACGAGUCCUCACUGAACUGGCCUCAGUUG", "bound/input enrichment": "0.174 ratio"}
{"Oligonucleotide": "UGUGCGGCCGCAGGCGGAGCAGGGCGGCCCGGGCGGCGGUGGGGACAACGGUUUCCCUUUGAAGGGGACGGACAAAGCCCGAGUGACCAGCGGCGGCGGGGAGGACUAGUCCCCGGGCAG", "bound/input enrichment": "0.326 ratio"}
{"Oligonucleotide": "ACUCUGUGGGCCACAUCCCCCAGGGUUCUGACACUUCUGCAGUGUGACCAGUGGUGAUGCUAGGUUAUAAUUUCAAACUGUGAAAAAUAAUGGUCUCGUCCUUUACUCAGUGUGGGGUUA", "bound/input enrichment": "0.295 ratio"}
{"Oligonucleotide": "GAAAGGACCCUGGGACUGAGCAGCCCUUGUGACAACCGUGUCCCCACUCCGCAGCUGUACUUCACCACGCCCUCCAACCAGAACGUCUACCAGGUGGACUCCCUGCAGUCUACGUGAAAG", "bound/input enrichment": "0.205 ratio"}
{"Oligonucleotide": "UAGCUUUAUGAAUUGCUUUGGUUUCUGUUUUUGCAUACUCUCAAUUUCUUUGAACCCCACCCCCACCCCACCCCCACUUACAUGCAUGCGAUCAGACAGGCCACUAAGGUAGAUUCUGCA", "bound/input enrichment": "1.32 ratio"}
{"note": "Excerpt of the above (set 2):"}
{"Oligonucleotide": "UGCCCCUGGUGGCAUGCGGGGAGGAAGAGGUGGCCUCAUGGAUCGUGGUGGUCCCGGUGGAAUGUUCAGAGGUGGCCGUGGUGGAGACAG", "log2 enrichment": -1.2}
{"Oligonucleotide": "CUCAAGUCCUGUGCUACACAUCGUAUGUACCGAAUCGGUUUUUGGUUUGGAGGAAAGUAUUAUGUUACGCCGUUCGGAUCUGCACUUCCA", "log2 enrichment": -0.554}
{"Oligonucleotide": "AGUCCUGUGCUACACAUCGUAUGUACCGAAUCGGGCCCCGGGGCCCCGGGCCCCGGGGAAAGUAUUAUGUUACGCCGUUCGGAUCUGCAC", "log2 enrichment": -1.85}
